Assay results collected from several papers.
Protocols differ between the studies behind these lines.
Target: Cytochrome P450 2D6 (CYP2D6, Homo sapiens, UniProt P10635)
Sequence of UniProt P10635 (whole entry, looked up): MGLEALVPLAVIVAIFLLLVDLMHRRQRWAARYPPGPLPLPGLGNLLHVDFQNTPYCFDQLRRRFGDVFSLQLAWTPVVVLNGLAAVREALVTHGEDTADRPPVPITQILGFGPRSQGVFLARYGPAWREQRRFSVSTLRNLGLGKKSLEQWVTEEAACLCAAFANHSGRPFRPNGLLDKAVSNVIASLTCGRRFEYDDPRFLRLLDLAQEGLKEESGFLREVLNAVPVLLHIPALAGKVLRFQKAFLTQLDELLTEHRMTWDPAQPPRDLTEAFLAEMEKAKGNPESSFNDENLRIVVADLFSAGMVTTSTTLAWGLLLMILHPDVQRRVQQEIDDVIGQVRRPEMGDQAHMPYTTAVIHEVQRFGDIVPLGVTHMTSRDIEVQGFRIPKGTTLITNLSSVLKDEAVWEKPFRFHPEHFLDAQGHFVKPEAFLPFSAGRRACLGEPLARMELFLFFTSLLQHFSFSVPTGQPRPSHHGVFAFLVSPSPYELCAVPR

| SMILES | test | system | setting | how to read | endpoint | value |
| --- | --- | --- | --- | --- | --- | --- |
| O=C(Nc1nc(C(F)(F)F)co1)C1c2ccccc2Oc2ccccc21 | enzyme activity, inhibitor |  | 2D6 |  | IC50 | > 30 µM |
| COC1C(c2ccc(Cl)c(Cc3ccc(OC4CCOC4)cc3)c2)OC(CO)C(O)C1O (stereo not shown) | enzyme activity, inhibitor | human, liver microsomes | 10 µM, 10 min |  | inhibition | 16.8% |
| C=C(NC(=O)c1csc(-c2nc3c(cc2O)-c2nc(cs2)C(=O)NC(C(C)O)C(=O)NC(=C(C)OC)c2nc(cs2)C(=O)NC2c4nc(cs4)C(=O)NC(COC(=O)c4c5c6c(cccc6n4O)COC(=O)C(OC4CC(C)(O)C(N(C)C)C(C)O4)C2OC5)c2nc-3cs2)n1)C(N)=O (stereo not shown) | enzyme activity, inhibitor, substrate cocktail | pooled human liver microsomes | up to 50 µM, pH 7.4 |  | remaining activity | > 70% |
| Cc1nc2ccc(S(=O)(=O)n3nc(SCc4ccc(Cl)cc4)nc3N)cc2s1 | enzyme activity, inhibitor | human, liver microsomes | 10 µM |  | inhibition | 32% |
| O=C(CN1CN(c2ccccc2)C2(CCN(C(=O)c3ccc4[nH]ncc4n3)CC2)C1=O)NCC(F)(F)F | enzyme activity, inhibitor |  |  |  | IC50 | 33 µM |
| C=CC(=O)Nc1cc(Nc2nccc(-c3cn(C)c4ccccc34)n2)c(OCC(F)(F)F)nc1N(C)CCN(C)C | substrate |  | 3 µM, 60 min, 2D6 isoform, liver abundance-normalized |  | contribution to substrate depletion | 0.343% |
| O=C(CN1CN(c2ccc(Cl)c(Cl)c2)C2(CCN(C(=O)c3ccc4[nH]ncc4c3)CC2)C1=O)NCC(F)(F)F | enzyme activity, inhibitor |  |  |  | IC50 | 1.8 µM |
| Nc1nc(SCc2ccc(Cl)cc2)nn1S(=O)(=O)c1ccc2c(c1)CCO2 | enzyme activity, inhibitor | human, liver microsomes | 10 µM |  | inhibition | 38% |
| O=C(CN1CN(c2ccccc2)C2(CCN(C(=O)c3cc4cn[nH]c4cn3)CC2)C1=O)NCC(F)(F)F | enzyme activity, inhibitor |  |  |  | IC50 | > 50 µM |
| CNC(=O)C1CCCN(C(=O)C2CC3CCC2N3C(=O)[C@@H]2C[C@@H](O)CN2C(=O)NCc2cccc(Cl)c2F)C1 (mixture of isomers) | enzyme activity, inhibitor, time-dependent inhibition |  | 50 µM, preincubated with NADPH | reference: negative control | remaining activity | 131% |

For quick reference, copied from above:
| SMILES | test | system | setting | how to read | endpoint | value |
| --- | --- | --- | --- | --- | --- | --- |
| CNC(=O)C1CCCN(C(=O)C2CC3CCC2N3C(=O)[C@@H]2C[C@@H](O)CN2C(=O)NCc2cccc(Cl)c2F)C1 (mixture of isomers) | enzyme activity, inhibitor, time-dependent inhibition |  | 50 µM, preincubated with NADPH | reference: negative control | remaining activity | 131% |
